Measured values collected from several papers.
Compare with care: the assays were run in different laboratories.
Organism: Staphylococcus aureus

SMILES | assay | system | conditions | MIC
COc1cc(C(=O)O)ccc1NC(=O)c1ccc(NC(=O)c2ccc(NC(=O)[C@H](Cc3c[nH]nn3)NC(=O)c3ccc(NC(=O)/C(C)=C/c4ccc(O)cc4)cc3)cc2)cc1O | broth microdilution | ciprofloxacin-sensitive | – | 32 µg/mL
CC[C@H]1OC(=O)[C@H](C)[C@@H](OC(=O)Cc2ccccc2[N+](=O)[O-])[C@H](C)[C@@H](O[C@@H]2O[C@H](C)C[C@H](N(C)C)[C@H]2O)[C@](C)(OC)C[C@@H](C)C(=O)[C@H](C)[C@@H](O)[C@]1(C)O | – | BAA-977 | – | 1 µg/mL
Cc1c(CN(C)C(=O)/C=C/c2cnc3c(c2)CC(CN)C(=O)N3)oc2ccccc12 (stereo not drawn) | microbial growth, broth dilution | ATCC29213 | – | 0.03 µg/mL
CCC(CC)c1cc(CCN2CCCN(S(=O)(=O)c3ccc(F)cc3)CC2)nc(-c2ccccn2)n1 | microbial growth, broth dilution | ATCC29213 | – | > 16 µg/mL
CCOc1c(NC(=O)c2ccc(NC(=O)c3ccc(NC(=O)[C@H](Cc4c[nH]nn4)NC(=O)c4ccc(NC(=O)/C(C)=C/c5ccc(O)cc5)cc4)cc3)c(OCC)c2O)ccc(C(=O)O)c1O | broth microdilution | ciprofloxacin-sensitive | – | 0.031 µg/mL
CC[C@H]1OC(=O)[C@H](C)[C@@H](OC(=O)Cc2cccc3ccccc23)[C@H](C)[C@@H](O[C@@H]2O[C@H](C)C[C@H](N(C)C)[C@H]2O)[C@](C)(OC)C[C@@H](C)C(=O)[C@H](C)[C@@H](O)[C@]1(C)O | – | DSM 20231 MSSA | – | 8 µg/mL
CC(=O)NC[C@H]1CN(c2ccc(N3CCN(C(=O)CN)CC3)c(F)c2)C(=O)O1 | microbial growth, broth dilution | NEWMAN | – | 50 µM
CCCCCCCCn1cc[n+](CCCCCCOc2cc(OCCCCCC[n+]3ccn(CCCCCCCC)c3)cc(OCCCCCC[n+]3ccn(CCCCCCCC)c3)c2)c1.[Br-].[Br-].[Br-] | – | CA-MRSA USA300-0114 | – | 1 µM
Oc1c(Br)cc(Br)c2nc3cc(Cl)ccc3nc12 | – | 129 MRSA clinical isolate | – | 0.15 µM
CC[C@H]1OC(=O)[C@H](C)[C@@H](OC(=O)Cc2c(F)cccc2F)[C@H](C)[C@@H](O[C@@H]2O[C@H](C)C[C@H](N(C)C)[C@H]2O)[C@](C)(OC)C[C@@H](C)C(=O)[C@H](C)[C@@H](O)[C@]1(C)O | microbial growth | BAA976 | – | 2 µg/mL
CCCCCCCC(=O)Oc1c(C)c(OC)c2c(/C=C/c3ccccc3)c(CCCCCC)c(=O)oc2c1C | microbial growth, broth dilution | ATCC25923 | – | 5000 µg/mL
CC[C@H]1OC(=O)[C@H](C)[C@@H](OC(=O)c2ccc([N+](=O)[O-])cc2)[C@H](C)[C@@H](O[C@@H]2O[C@H](C)C[C@H](N(C)C)[C@H]2O)[C@](C)(OC)C[C@@H](C)C(=O)[C@H](C)[C@@H](O)[C@]1(C)O | – | ATCC 43300 MRSA | – | > 64 µg/mL
C#CCOc1ccc(CN[C@@]2(C)C[C@H](O[C@H]3[C@H](Oc4c5cc6cc4Oc4ccc(cc4Cl)[C@@H](O)[C@@H](NC(=O)[C@@H](CC(C)C)NC)C(=O)N[C@@H](CC(N)=O)C(=O)N[C@H]6C(=O)N[C@H]4C(=O)N[C@H](C(=O)N[C@H](C(=O)O)c6cc(O)cc(O)c6-c6cc4ccc6O)[C@H](O)c4ccc(c(Cl)c4)O5)O[C@H](CO)[C@@H](O)[C@@H]3O)O[C@@H](C)[C@H]2O)cc1OC | broth microdilution | MSSA ATCC 29213, cation-adjusted Mueller-Hinton broth | 20 to 24 h, 37 °C, 0.002% polysorbate 80 | 2 µg/mL
CCCCCCCC[N+](C)(C)CCCCCCOc1cc(OCCCCCC[N+](C)(C)CCCCCCCC)cc(OCCCCCC[N+](C)(C)CCCCCCCC)c1.[Br-].[Br-].[Br-] | – | SH1000 MSSA | – | 0.5 µM
CC[C@H]1OC(=O)[C@H](C)[C@@H](OC(=O)CC2CCCCC2)[C@H](C)[C@@H](O[C@@H]2O[C@H](C)C[C@H](N(C)C)[C@H]2O)[C@](C)(OC)C[C@@H](C)C(=O)[C@H](C)[C@@H](O)[C@]1(C)O | microbial growth | BAA976 | – | 2 µg/mL
Oc1cccc2c1[nH]c1c(C3=CC4(O)CCC=CCCCCN5CCC3C3(CC6C=CCCCCN6C43)C5)nccc12 (single isomer, unassigned; (+)) | growth | ATCC 43300 methicillin-resistant | – | 20 µg/mL
COc1cc(C(=O)Nc2ccc(C(=O)O)cc2)ccc1NC(=O)c1ccc(NC(=O)[C@H](Cc2c[nH]nn2)NC(=O)c2ccc(NC(=O)/C(C)=C/c3ccc(O)cc3)cc2)cc1 | broth microdilution | ciprofloxacin-sensitive | – | 32 µg/mL

SMILES | assay | system | conditions | MIC
CNC(=O)c1cc(Oc2ccc(NC(=O)Nc3ccccc3)cc2)ccn1 | microbial growth | NCTC8325 | – | > 100 µM
COc1c(NC(=O)c2ccc(NC(=O)c3ccc(NC(=O)[C@H](Cc4c[nH]nn4)NC(=O)c4ccc(NC(=O)/C(C)=C/c5ccc(O)cc5)cc4)cc3)c(OC)c2O)ccc(C(=O)O)c1O | broth microdilution | ciprofloxacin-sensitive | – | 2 µg/mL
CN[C@H](CC(C)C)C(=O)N[C@H]1C(=O)N[C@@H](CC(N)=O)C(=O)N[C@H]2C(=O)N[C@H]3C(=O)N[C@H](C(=O)N[C@H](C(=O)NCC(N)=O)c4cc(O)cc(O)c4-c4cc3ccc4O)[C@H](O)c3ccc(c(Cl)c3)Oc3cc2cc(c3O[C@@H]2O[C@H](CO)[C@@H](O)[C@H](O)[C@H]2O[C@H]2C[C@](C)(NCc3ccc(OCc4cn(CC(=O)N[C@H](C(=O)N[C@@H](CCN)C(=O)N[C@H]5CCNC(=O)[C@H]([C@@H](C)O)NC(=O)[C@H](CCN)NC(=O)[C@H](CCN)NC(=O)[C@H](CC(C)C)NC(=O)[C@@H](CC(C)C)NC(=O)[C@H](CCN)NC5=O)[C@@H](C)O)nn4)c(OC)c3)[C@H](O)[C@H](C)O2)Oc2ccc(cc2Cl)[C@H]1O | broth microdilution | MSSA ATCC 29213, cation-adjusted Mueller-Hinton broth | 20 to 24 h, 37 °C, 0.002% polysorbate 80 | 0.25 µg/mL
CC[C@H]1OC(=O)[C@H](C)[C@@H](OC(=O)Cc2ccc(OC(F)(F)F)cc2)[C@H](C)[C@@H](O[C@@H]2O[C@H](C)C[C@H](N(C)C)[C@H]2O)[C@](C)(OC)C[C@@H](C)C(=O)[C@H](C)[C@@H](O)[C@]1(C)O | – | DSM 20231 MSSA | – | 8 µg/mL
CCCCCCCCCCn1cc[n+](CCCCCCCCCCOc2cc(OCCCCCCCCCC[n+]3ccn(CCCCCCCCCC)c3)cc(OCCCCCCCCCC[n+]3ccn(CCCCCCCCCC)c3)c2)c1.[Br-].[Br-].[Br-] | – | HA-MRSA ATCC 33591 | – | 63 µM
CC1C=CC=CC(C)C2C=CC3CC(C)(O)C(Cl)C(C)C3C2C(=O)C(Cl)(Cl)C(=O)C(C)C(=O)O1 (stereo not drawn) | – | MSSA clinical isolate | CLI ERY resistant | 0.025 µg/mL
CCCCCCCCCC[N+](C)(C)CCCCOc1cc(OCCCC[N+](C)(C)CCCCCCCCCC)cc(OCCCC[N+](C)(C)CCCCCCCCCC)c1.[Br-].[Br-].[Br-] | – | CA-MRSA USA300-0114 | – | 0.5 µM
CC[C@H]1OC(=O)[C@H](C)[C@@H](OC(=O)Cc2ccc([N+](=O)[O-])cc2)[C@H](C)[C@@H](O[C@@H]2O[C@H](C)C[C@H](N(C)C)[C@H]2O)[C@](C)(OC)C[C@@H](C)C(=O)[C@H](C)[C@@H](O)[C@]1(C)O | – | DSM 20231 MSSA | – | 0.1 µg/mL
CCCCCCCCCC[N+](C)(C)CCCCCCCCCCOc1cc(OCCCCCCCCCC[N+](C)(C)CCCCCCCCCC)cc(OCCCCCCCCCC[N+](C)(C)CCCCCCCCCC)c1.[Br-].[Br-].[Br-] | – | SH1000 MSSA | – | 8 µM
CNC(C)C1CCC(N)C(OC2C(N)CC(N)C(OC3OCC(C)(O)C(NC)C3O)C2O)O1 (stereo not drawn) | microbial growth, broth dilution | 29213 | – | 3 µM
CCCCCCCCn1cc[n+](CCCCCCCCOc2cc(OCCCCCCCC[n+]3ccn(CCCCCCCC)c3)cc(OCCCCCCCC[n+]3ccn(CCCCCCCC)c3)c2)c1.[Br-].[Br-].[Br-] | – | HA-MRSA ATCC 33591 | – | 2 µM
CCCC(=O)Oc1c(C)c(OC)c2c(/C=C/c3ccccc3)c(CC)c(=O)oc2c1C | microbial growth, broth dilution | ATCC25923 | – | 2500 µg/mL
CCCCCCCCCCCC[N+](C)(C)CCCCCCCCOc1cc(OCCCCCCCC[N+](C)(C)CCCCCCCCCCCC)cc(OCCCCCCCC[N+](C)(C)CCCCCCCCCCCC)c1.[Br-].[Br-].[Br-] | – | SH1000 MSSA | – | 8 µM
C=C1CN(C(=N)N)CC2Nc3c(F)cc(Br)cc3C12CCNS(=O)(=O)c1ccc(Cl)cc1.O=C(O)C(F)(F)F (stereo not drawn) | – | NRS-384, community-acquired MRSA | – | 2 µg/mL
CCCCCCCCn1cc[n+](CCCCCCCCCCOc2cc(OCCCCCCCCCC[n+]3ccn(CCCCCCCC)c3)cc(OCCCCCCCCCC[n+]3ccn(CCCCCCCC)c3)c2)c1.[Br-].[Br-].[Br-] | – | HA-MRSA ATCC 33591 | – | 32 µM
CCCC/C=C/C(=O)N[C@@H](Cc1cc(F)cc(F)c1)C(=O)N[C@H]1COC(=O)[C@@H]2CCCN2C(=O)[C@H](C)NC(=O)[C@@H]2C[C@@H](C(C)C)CCN2C(=O)[C@@H]2CCCN2C1=O | microbial growth, broth dilution | – | – | 1.16 µg/mL

A few entries again:
SMILES | assay | system | conditions | MIC
CC[C@H]1OC(=O)[C@H](C)[C@@H](OC(=O)Cc2ccc([N+](=O)[O-])cc2)[C@H](C)[C@@H](O[C@@H]2O[C@H](C)C[C@H](N(C)C)[C@H]2O)[C@](C)(OC)C[C@@H](C)C(=O)[C@H](C)[C@@H](O)[C@]1(C)O | – | DSM 20231 MSSA | – | 0.1 µg/mL
CCCCCCCCCC[N+](C)(C)CCCCCCCCCCOc1cc(OCCCCCCCCCC[N+](C)(C)CCCCCCCCCC)cc(OCCCCCCCCCC[N+](C)(C)CCCCCCCCCC)c1.[Br-].[Br-].[Br-] | – | SH1000 MSSA | – | 8 µM
CNC(C)C1CCC(N)C(OC2C(N)CC(N)C(OC3OCC(C)(O)C(NC)C3O)C2O)O1 (stereo not drawn) | microbial growth, broth dilution | 29213 | – | 3 µM
